# Results gathered from unrelated publications.
# Protocols differ between the studies behind these lines. “And” joins repeats or separate records; there may be more than shown. Numbers after ± are the reported error.
Structure (SMILES),target or system,test,system,setting,quantity,value
CSCC[C@H](NC(=O)CNC(=O)[C@H](CCCCN)NC(=O)[C@H](CC(C)C)NC(=O)[C@@H]1CCCN1C(=O)[C@H](CO)NC(=O)[C@H](Cc1c[nH]cn1)NC(=O)[C@H](Cc1c[nH]c2ccccc12)NC(=O)[C@H](CCCNC(=N)N)NC(=O)[C@H](CC(C)C)NC(=O)[C@H](CCCNC(=N)N)NC(=O)[C@H](Cc1c[nH]c2ccccc12)NC(=O)[C@H](CS)NC(=O)CCCCCNC(=O)CN1CCN(CC(=O)O)CCN(CC(=O)O)CCN(CC(=O)O)CC1)C(=O)O [copper-64 labelled],,ex vivo biodistribution,"male C57BL/6J mice, kidney","intravenous, 1.85 MBq, 18 h, B16-F10 tumour-bearing",tissue uptake,7.58 %ID/g
CCCC[C@H]1C(=O)N(C)[C@@H](CCCC)C(=O)N[C@@H](CCCNC(=O)CN2CCN(CC(=O)O)CCN(CC(=O)O)CCN(CC(=O)O)CC2)C(=O)N[C@H](C(=O)NCC(N)=O)CSCC(=O)N[C@@H](Cc2ccc(O)cc2)C(=O)N(C)[C@@H](C)C(=O)N[C@@H](CC(N)=O)C(=O)N2CCC[C@H]2C(=O)N[C@@H](Cc2c[nH]cn2)C(=O)N[C@@H](CC(C)C)C(=O)N(C)CC(=O)N[C@@H](Cc2c[nH]c3ccccc23)C(=O)N[C@@H](CO)C(=O)N[C@@H](Cc2c[nH]c3ccccc23)C(=O)N1C [gallium-68 labelled],,,"NOD/SCID mice with CHO-hPD-L1 xenograft, brain",30 min post injection,tissue uptake,0.42 ± 0.05 %ID/g
C[C@H](O)[C@@H](NC(=O)[C@H]1CCCN1C(=O)[C@@H](CCCCN)NC(=O)[C@@H](CO)NC(=O)[C@@H](Cc1ccc(O)cc1)NC(=O)[C@@H](CC(N)=O)NC(=O)CCOCCOCCOCCNC(=O)CN1CCN(CC(=O)O)CCN(CC(=O)O)CCN(CC(=O)O)CC1)C(=O)N[C@H](CC(=O)O)C(=O)N[C@H](CCCNC(=N)N)C(=O)N[C@H](CCC(N)=O)C(=O)N[C@H](Cc1ccc(O)cc1)C(=O)N[C@H](Cc1c[nH]cn1)C(=O)N[C@H](Cc1ccccc1)C(N)=O [copper-64 labelled],,,"C57BL/6J mice, lung","intravenous, 1.85 MBq, 0.6667 h, radiolabelled",tissue uptake,1.31 ± 0.07 %ID/g
CCn1ccc(-c2cc(-c3cnn(C)c3)cc([C@@H](C)NC(=O)c3cc(OCCN(C)C)ccc3C)c2)n1,African green monkey cells,,,7.812 µM,viability,97.7%
CC[C@H](C)[C@H](NC(=O)[C@H](CCCCN)NC(=O)CNC(=O)[C@H](CC(C)C)NC(=O)[C@H](Cc1ccccc1)NC(=O)[C@H](CCCCN)NC(=O)[C@H](CO)NC(=O)[C@H](Cc1ccccc1)NC(=O)[C@H](Cc1c[nH]c2ccccc12)NC(=O)[C@H](CCC(N)=O)NC(=O)[C@@H](NC(=O)[C@H](Cc1ccccc1)NC(=O)CCCCCNC(=O)CN1CCN(CC(=O)O)CCN(CC(=O)O)CCN(CC(=O)O)CC1)C(C)C)C(=O)N[C@@H](CCC(=O)O)C(=O)N1CCC[C@H]1C(=O)N[C@@H](CC(=O)O)C(=O)N[C@H](C(=O)N[C@@H](CO)C(=O)N[C@@H](CCC(N)=O)C(=O)N[C@H](C(=O)N[C@@H](CCC(N)=O)C(=O)N[C@@H](CC(=O)O)C(=O)N1CCC[C@H]1C(=O)N[C@@H](CC(N)=O)C(=O)N[C@@H](CC(=O)O)C(=O)N[C@@H](CCC(N)=O)C(=O)N[C@@H](Cc1ccc(O)cc1)C(=O)N[C@@H](CCC(=O)O)C(=O)N1CCC[C@H]1C(=O)N[C@@H](Cc1ccccc1)C(=O)O)C(C)C)C(C)C [copper-64 labelled],,,"GZMB-/- mice, CT26 tumour-bearing, spleen","2 h, vehicle-treated",tissue uptake,0.68 ± 0.1 %ID/g
CC[C@H](C)[C@H](NC(=O)[C@H](CCCNC(=N)N)NC(=O)[C@H](CCCCN)NC(=O)[C@H](Cc1ccc(O)cc1)NC(=O)[C@H](CC(=O)O)NC(=O)[C@H](C)NC(=O)CNC(=O)CCOCCOCCOCCNC(=O)CN1CCN(CC(=O)O)CCN(CC(=O)O)CCN(CC(=O)O)CC1)C(=O)N[C@H](C(=O)N[C@H](C(=O)N[C@@H](CCCCN)C(=O)N[C@H](C(=O)N[C@@H](CC(N)=O)C(N)=O)C(C)C)C(C)C)[C@@H](C)O [copper-64 labelled],,ex vivo gamma counting,"C57BL/6J male mice, B16-F10 tumour, muscle","intravenous, 1.85 MBq, 40 min",tissue uptake,0.301 ± 0.013 %ID/g
CC(C)C[C@@H](NC(=O)[C@@H](CCCNC(=N)N)NC(=O)[C@@H](Cc1c[nH]cn1)NC(=O)[C@@H](Cc1c[nH]c2ccccc12)NC(=O)[C@@H](Cc1c[nH]cn1)NC(=O)[C@@H](Cc1ccccc1)NC(=O)[C@H](NC(=O)[C@@H](Cc1ccc(O)cc1)NC(=O)CNC(=O)CNC(=O)CCOCCOCCOCCNC(=O)CN1CCN(CC(=O)O)CCN(CC(=O)O)CC1)[C@H](C)O)C(=O)N[C@H](CC(N)=O)C(=O)N1CCC[C@@H]1C(=O)O [gallium-68 labelled],,,"C57BL/6 mice, male, intestines","intravenous, 1.85 MBq, 60 min, together with: GP12 blocking",tissue uptake,1.28 ± 0.41 %ID/g
CC[C@H](C)[C@H](NC(=O)[C@H](CCCNC(=N)N)NC(=O)[C@H](CCCCN)NC(=O)[C@H](Cc1ccc(O)cc1)NC(=O)[C@H](CC(=O)O)NC(=O)[C@H](C)NC(=O)CNC(=O)CCOCCOCCOCCNC(=O)CN1CCN(CC(=O)O)CCN(CC(=O)O)CCN(CC(=O)O)CC1)C(=O)N[C@H](C(=O)N[C@@H](CC(C)C)C(=O)N[C@@H](CCCCN)C(=O)N[C@H](C(=O)N[C@@H](CC(N)=O)C(N)=O)C(C)C)[C@@H](C)O [copper-64 labelled],,ex vivo gamma counting,"C57BL/6J male mice, B16-F10 tumour, blood","intravenous, 1.85 MBq, 40 min",tissue uptake,1.06 ± 0.135 %ID/g
O=C1NC2(CC2)COc2ncc(F)cc2[C@H]2COCCN2c2ccn3ncc1c3n2,,,"Sprague-Dawley rat, male, spleen","oral, 10 mg/kg/day, 4 weeks, end of treatment",organ-to-brain weight ratio,82.1 ± 36.1%
Cc1ccc(N2CC(N(C)C)C2)cc1C(=O)N[C@H](C)c1cc(-c2cnn(C)c2)nc2ccccc12,Vero E6,,,7.812 µM,viability,96.9% and 95.8% and 98.1%
CN1Cc2cc(Cl)ccc2-n2c(nnc2C2CCN(c3cccc([18F])n3)CC2)C1,,,"C57BL/6 mouse male, lung","intravenous, 3.7 MBq, 60 min",tissue uptake,3.5 ± 0.91 %ID/g

# Some of these lines once more:
Structure (SMILES),target or system,test,system,setting,quantity,value
CC(C)C[C@@H](NC(=O)[C@@H](CCCNC(=N)N)NC(=O)[C@@H](Cc1c[nH]cn1)NC(=O)[C@@H](Cc1c[nH]c2ccccc12)NC(=O)[C@@H](Cc1c[nH]cn1)NC(=O)[C@@H](Cc1ccccc1)NC(=O)[C@H](NC(=O)[C@@H](Cc1ccc(O)cc1)NC(=O)CNC(=O)CNC(=O)CCOCCOCCOCCNC(=O)CN1CCN(CC(=O)O)CCN(CC(=O)O)CC1)[C@H](C)O)C(=O)N[C@H](CC(N)=O)C(=O)N1CCC[C@@H]1C(=O)O [gallium-68 labelled],,,"C57BL/6 mice, male, intestines","intravenous, 1.85 MBq, 60 min, together with: GP12 blocking",tissue uptake,1.28 ± 0.41 %ID/g
